Measured values collected from several papers.
Each numbered part is a random draw from the data of one study; scales do not carry over between parts. Changes are numbered by the printed parent chain.

Block 1
Target: ABI1, truncated, D143A, DHFR fusion (Arabidopsis thaliana)
Technique: DHFR PCA, deep sequencing
Matrix: yeast
Setting: methotrexate growth selection, single substitutions
Added: (+)-ABA 58 µM
Baseline: wild-type fitted maximum
Reading: higher = stronger binding
Endpoint: relative binding score
Starting sequence: PYL1, truncated, DHFR fusion (Arabidopsis thaliana); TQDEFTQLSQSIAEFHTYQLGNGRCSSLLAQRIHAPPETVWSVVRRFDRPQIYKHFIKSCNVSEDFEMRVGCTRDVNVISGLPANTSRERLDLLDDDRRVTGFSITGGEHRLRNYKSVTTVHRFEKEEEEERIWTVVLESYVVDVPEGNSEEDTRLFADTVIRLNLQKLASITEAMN
A158L: 85.8%
W41E: 12.6%
L169E: -0.976%
F103H: 11.1%
I12F: 38.6%
T39R: 88.5%
E109V: 81.5%
E147Q: 81.1%
A13H: 91.2%

Block 2
Target: CCNA2, cyclin fold, Cln2 fusion (human)
Technique: yeast growth competition, sequencing
Matrix: yeast
Setting: strong parent motif
Baseline: not given
Reading: higher = stronger binding
Endpoint: normalised enrichment score
Starting sequence: TICRR docking peptide (human); TKVRRNLFNQELL; partner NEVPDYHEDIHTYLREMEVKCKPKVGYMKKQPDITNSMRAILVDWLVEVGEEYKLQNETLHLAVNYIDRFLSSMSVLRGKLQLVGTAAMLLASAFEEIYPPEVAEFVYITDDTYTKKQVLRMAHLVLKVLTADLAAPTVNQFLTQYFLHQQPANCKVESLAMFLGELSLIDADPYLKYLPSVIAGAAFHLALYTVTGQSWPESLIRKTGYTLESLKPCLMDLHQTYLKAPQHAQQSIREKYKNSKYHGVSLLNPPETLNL
TKVRRNLLNQELL [F8L]: 1.42
TKVRRNLFNQALL [E11A]: 4.68
TAVRRNLFNQELL [K2A]: 3.96
TKVRRNLANQELL [F8A]: 0.812
TKVRANAFNQELL [R5A L7A]: 0.542
TKVRRNLFNQELA [L13A]: 5.88
TKVRRALFNQELL [N6A]: 5.24
TKVRRNAFNQELL [L7A]: 1.25

Block 3
Target: Histone acetyltransferase KAT6A, winged helix 2, GST fusion (KAT6A, Homo sapiens, UniProt Q92794, residues 85-181)
Technique: protein binding microarray
Molecule type: double-stranded DNA, one strand shown
Matrix: in vitro
Tested at: not given
Setting: 8-mer, flanks averaged, mean of 2 arrays, mostly near background
Baseline: not given
Reading: higher = stronger binding
Endpoint: E-score
Construct (chain): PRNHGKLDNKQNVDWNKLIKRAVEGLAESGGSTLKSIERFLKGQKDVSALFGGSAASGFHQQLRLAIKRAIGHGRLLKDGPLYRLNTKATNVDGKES
AACCAGTG: -0.205
CTCAAAGC: 0.0777
GACCGACC: 0.0891
GGCACCCC: -0.0773
CATCGAAG: -0.01
TGATGTAA: -0.0327
GCCGCTCC: 0.0758
CCGCCGCG: 0.244
CCTGAACC: -0.0128
GTCCGTCA: -0.0637
GCCGAGCC: 0.178

Mixed results
PhoQ, residues 284 288 289 292 302 303 AQGLTV
fold induction (PhoP, residues 12 14 15 18 19 MHTVL (Escherichia coli, UniProt P23836); Sort-seq, item: YFP reporter; E. coli; PhoQ-PhoP variant library, added: 10 µM Mg2+; baseline: high Mg2+ state, higher = stronger signaling): 5.39

Repeated from above (block 2):
TAVRRNLFNQELL [K2A]: 3.96
TKVRRNLANQELL [F8A]: 0.812
TKVRANAFNQELL [R5A L7A]: 0.542
TKVRRNLFNQELA [L13A]: 5.88
